# Assay results collected from several papers.
# Parts stem from different laboratories: compare values within a part only. Positions count from the first letter of the parent shown.

# Block 1 — technique: universal PBM; molecule type: double-stranded DNA, one strand shown; medium: in vitro; tested at: 600 nM; direction: higher = stronger binding
# Target: Sal-like protein 4, full length isoform A (SALL4, Homo sapiens, UniProt Q9UJQ4, residues 1-1053)
# Sequence of UniProt Q9UJQ4 (whole entry, looked up): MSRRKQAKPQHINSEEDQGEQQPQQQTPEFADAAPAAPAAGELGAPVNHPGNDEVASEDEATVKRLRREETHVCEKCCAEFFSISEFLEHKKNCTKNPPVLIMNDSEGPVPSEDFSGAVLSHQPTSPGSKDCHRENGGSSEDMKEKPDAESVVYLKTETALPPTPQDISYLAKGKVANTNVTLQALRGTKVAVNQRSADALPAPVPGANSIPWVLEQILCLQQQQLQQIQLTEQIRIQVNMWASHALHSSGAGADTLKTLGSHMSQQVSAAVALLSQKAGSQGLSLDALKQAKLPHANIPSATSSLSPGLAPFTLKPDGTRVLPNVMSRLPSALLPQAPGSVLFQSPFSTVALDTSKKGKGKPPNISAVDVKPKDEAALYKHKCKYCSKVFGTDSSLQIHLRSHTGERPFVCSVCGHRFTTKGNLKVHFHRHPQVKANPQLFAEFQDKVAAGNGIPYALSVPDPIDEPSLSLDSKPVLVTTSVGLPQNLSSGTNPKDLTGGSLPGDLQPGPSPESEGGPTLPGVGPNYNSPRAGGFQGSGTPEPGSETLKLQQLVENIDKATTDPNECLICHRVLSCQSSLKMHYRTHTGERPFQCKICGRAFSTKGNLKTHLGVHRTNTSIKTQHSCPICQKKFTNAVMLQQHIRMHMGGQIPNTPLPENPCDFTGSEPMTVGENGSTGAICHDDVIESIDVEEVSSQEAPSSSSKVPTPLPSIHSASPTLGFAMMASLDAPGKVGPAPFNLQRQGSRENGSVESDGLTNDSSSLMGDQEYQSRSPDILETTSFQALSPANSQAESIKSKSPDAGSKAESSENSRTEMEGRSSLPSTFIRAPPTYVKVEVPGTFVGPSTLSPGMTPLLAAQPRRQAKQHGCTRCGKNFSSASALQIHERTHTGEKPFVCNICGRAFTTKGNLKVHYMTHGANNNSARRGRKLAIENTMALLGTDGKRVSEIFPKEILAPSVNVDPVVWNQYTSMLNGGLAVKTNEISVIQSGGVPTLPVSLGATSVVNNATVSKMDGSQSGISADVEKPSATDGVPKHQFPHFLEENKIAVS
# Notes: 8-mer, flanks averaged, mean of replicates
Sequence,E-score
AGACCTAT,0.215
GACACTGA,-0.0157
CATGTTAC,0.123
CTGTTAGA,0.037
ACGTGTCC,-0.264
CGTAGGAA,-0.0727
CCAAAGGG,-0.205

# Block 2 — technique: RNA Bind-n-Seq; molecule type: RNA; medium: in vitro; tested at: not given; notes: RNA with constant flanks, ends assumed; relative to: input RNA pool; direction: higher = stronger binding
# Target: RING finger protein unkempt homolog, zinc fingers 1-6, GST-SBP tag (UNK, Homo sapiens, UniProt Q9C0B0, residues 30-357)
# Shared flanks, not repeated: GGGAGUUCUACAGUCCGACGAUC … CAACAGAGGAUUGAGCAUCA
# Residues (chain): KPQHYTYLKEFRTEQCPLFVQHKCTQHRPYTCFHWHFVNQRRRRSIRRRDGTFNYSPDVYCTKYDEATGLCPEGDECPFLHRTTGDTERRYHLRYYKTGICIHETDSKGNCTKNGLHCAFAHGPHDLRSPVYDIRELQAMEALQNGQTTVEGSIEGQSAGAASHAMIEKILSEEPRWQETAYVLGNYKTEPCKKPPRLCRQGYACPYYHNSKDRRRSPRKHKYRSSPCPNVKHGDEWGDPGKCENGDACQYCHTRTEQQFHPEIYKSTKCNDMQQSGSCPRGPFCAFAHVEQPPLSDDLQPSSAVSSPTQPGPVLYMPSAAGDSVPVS
Sequence,bound/input enrichment
CGGCGCUACACUAGAGCAGAGUACGAGUCUGAGGCGGAGGGAGUAAUGGCAGGACAAGCGUUCCGAAAGUUUCUUCCACUCUUUGACCGAGUAUUGGUUGAAAGGAGUGCUGCUGAAACU,0.167 ratio
UCAGAAUAAUUUCAUCACUGGAGUCAGAGCGAUAAAUGAGUUCUGCCUCAAAUCCAGUGAUCCCGAACAACUUCGAAAAAUCAGACGACGAAGUCCCCAUGAAGAUACUGAGUCUUUUAC,0.0539 ratio
CCUUCCUUUCUGGCCAGUUCACCAAAAGGCAAAGGCUAUAAUAGGAGGUUAGCGCUCCGCUGGCUUUGGAAGUAAGUCUUUAUUAGUUUUCUGAGGGAGAUCAGAGAUGCACAGCUGGAC,0.409 ratio
GUACUGCAACAGCAGGGCAAGCUGCAGGAAGCACUGAUGCACUAUAAAGAAGCCAUACGAAUCCGUCCUACAUUUGCUGAUGCUUAUUCCAAUAUGGGAAACACUCUAAAGGAGAUGCAG,0.164 ratio
GUUCAAGAAGAGCUCCUGAAAGGCUUGGACAAUAAGAAUCCCAAGAUCAUAGUGGCCUGUACCGAGACACUGAGGAAAGCCUUAAGUGAAUUUGGUUCCAAAAUCAUCUUGCUUAAGCCA,0.507 ratio
UUAUCAAGGAAACAGAAAGAAGAAUUAUGGCAAAGGCUGAAGAAUUUAUUGACAGAUGUGUUGUCCGAAAGCCCAGUGGAUGGGUGGCAGGUAGUGGAAGCCCAGGGUGAAGACAAUAUG,0.526 ratio
AAGAUCUUUAAUGUUGCCAUUCCCCGAUUCCAUAUGGCAUGUCCAACAUUCAGGGUGUCUACCGCCCGAUUGGAAAUGGGUCCUGAUGAAUAUGAAGAGAUGGAAGAAGAGGAGGAGGAG,0.186 ratio
AGUCAUGAACCGGAGUUUGACUAUUUGAAAAGUCUAGAAAUUGAGGAAAAAAUUAAUAAAAUCCGGUGGUUACCACAACAGAAUGCUGCUCAUUUUCUACUGUCUACAAAUGAUAAAACU,1.08 ratio
UAUCACAUACACAUAAAAAAGGGAAGAAAUUCGGCAGUGAAUGAAGAUUCCUCUGCAUUUCCGCAUUGCUUUUUCUACUGUAGUUGGCUUUUGAAUGAGGAUGACAAUGGAAGAGAUGAA,0.351 ratio

# Block 3 — target: CCNB3, cyclin fold, Cln2 fusion (human); technique: yeast growth competition, sequencing; medium: yeast; notes: weak parent motif; relative to: not given; direction: higher = stronger binding
# Starting sequence: RB1 docking peptide (human); PKPLKKLRFDIEG
Change,normalised enrichment score
PKPLKKLRFDCEG [I11C],0.118
PKPLKYLRFDIEG [K6Y],-0.327
PKPLVKLRFDIEG [K5V],0.281
CKPLKKLRFDIEG [P1C],1.11
PKPLIKLRFDIEG [K5I],0.346
RKPLKKLRFDIEG [P1R],0.0126
PHPLKKLRFDIEG [K2H],-0.0473

# Further values, each from its own experiment
Substance,target,test,test system,setting,how to read,quantity,result
"PhoQ, residues 284 288 289 292 302 303 HSSMNL","PhoP, residues 12 14 15 18 19 LYFRQ (Escherichia coli, UniProt P23836)","Sort-seq, refers to: YFP reporter",E. coli,"PhoQ-PhoP variant library, together with: 10 µM Mg2+","relative to: high Mg2+ state, higher = stronger signaling",fold induction,8.28

# Some of these lines once more (block 1):
Sequence,E-score
CGTAGGAA,-0.0727
CCAAAGGG,-0.205
